Experimental data gathered from unrelated publications.
± marks the error that the study gave. No end group written: not given here. *: point of attachment.
DLG4: DLG4 309-422 (Homo sapiens, UniProt P78352)
B1: VCL head domain 1; chain MPVFHTRTIESILEPVAQQISHLVIMHEEGEVDGKAIPDLTAPVSAVQAAVSNLVRVGKETVQTTEDQILKRDMPPAFIKVENACTKLVRAAQMLQADPYSVPARDYLIDGSRGILSGTSDLLLTFDEAEVRKIIRVCKGILEYLTVAEVVETMEDLVTYTKNLGPGMTKMAKMIDERQQELTHQEHRVMLVNSMNTVKELLPVLISAMKIFVTTKNTKSQGIEEALKNRNFTVEKMSAEINEIIRVLQLTSWDEDAW
B2: TIMP3 (Homo sapiens, UniProt P35625); sequence looked up; chain CTCSPSHPQDAFCNSDIVIRAKVVGKKLVKEGPFGTLVYTIKQMKMYRGFTKMPHVQYIHTEASESLCGLKLEVNKYQYLLTGRVYDGKMYTGLCNFVERWDQLTLSQRKGLNYRYHLGCNCKIKSCYYLPCFVTSKNECLWTDMLSNFGYPGYQSKHYACIRQKGGYCSWYRGWAPPDKSIINATDP
B3: rpn10 (Schizosaccharomyces pombe, UniProt O94444); sequence looked up; chain MVLEATMILIDNSEWMINGDYIPTRFEAQKDTVHMIFNQKINDNPENMCGLMTIGDNSPQVLSTLTRDYGKFLSAMHDLPVRGNAKFGDGIQIAQLALKHRENKIQRQRIVAFVGSPIVEDEKNLIRLAKRMKKNNVAIDIIHIGELQNESALQHFIDAANSSDSCHLVSIPPSPQLLSDLVNQSPIGQGVVASQNQFEYGVDPNLDVELALALELSMAEERARQEVAAQKSSEETEDKKMQE
B4: Reln 1948-2662 (Mus musculus, UniProt Q60841); chain DGNNLNNPVLLLDTFDFGPREDNWFFYPGGNIGLYCPYSSKGAPEEDSAMVFVSNEVGEHSITTRDLSVNENTIIQFEINVGCSTDSSSADPVRLEFSRDFGATWHLLLPLCYHSSSLVSSLCSTEHHPSSTYYAGTTQGWRREVVHFGKLHLCGSVRFRWYQGFYPAGSQPVTWAIDNVYIGPQCEEMCYGHGSCINGTKCICDPGYSGPTCKISTKNPDFLKDDFEGQLESDRFLLMSGGKPSRKCGILSSGNNLFFNEDGLRMLVTRDLDLSHARFVQFFMRLGCGKGVPDPRSQPVLLQYSLNGGLSWSLLQEFLFSNSSNVGRYIALEMPLKARSGSTRLRWWQPSENGHFYSPWVIDQILIGGNISGNTVLEDDFSTLDSRKWLLHPGGTKMPVCGSTGDALVFIEKASTRYVVTTDIAVNEDSFLQIDFAASCSVTDSCYAIELEYSVDLGLSWHPLVRDCLPTNVECSRYHLQRILVSDTFNKWTRITLPLPSYTRSQATRFRWHQPAPFDKQQTWAIDNVYIGDGCLDMCSGHGRCVQGSCVCDEQWGGLYCDEPETSLPTQLKDNFNRAPSNQNWLTVSGGKLSTVCGAVASGLALHFSGGCSRLLVTVDLNLTNAEFIQFYFMYGCLITPSNRNQGVLLEYSVNGGITWNLLMEIFYDQYSKPGFVNILLPPDAKEIATRFRWWQPRHDGLDQNDWAIDNVLIS
B5: Fermt2 PH 386-496 (Mus musculus, UniProt Q8CIB5); Atto520 label; sequence looked up; chain KLTLKGYKQYWCTFKDTSISCYKSREESSGTPAHQLNLRGCEVTPDVNISGQKFNIKLLIPVAEGMNEIWLRCDNEKQYAHWMAACRLASKGKTMADSSYNLEVQNILSFL
Chain of UniProt Q65CL1 (whole entry, looked up): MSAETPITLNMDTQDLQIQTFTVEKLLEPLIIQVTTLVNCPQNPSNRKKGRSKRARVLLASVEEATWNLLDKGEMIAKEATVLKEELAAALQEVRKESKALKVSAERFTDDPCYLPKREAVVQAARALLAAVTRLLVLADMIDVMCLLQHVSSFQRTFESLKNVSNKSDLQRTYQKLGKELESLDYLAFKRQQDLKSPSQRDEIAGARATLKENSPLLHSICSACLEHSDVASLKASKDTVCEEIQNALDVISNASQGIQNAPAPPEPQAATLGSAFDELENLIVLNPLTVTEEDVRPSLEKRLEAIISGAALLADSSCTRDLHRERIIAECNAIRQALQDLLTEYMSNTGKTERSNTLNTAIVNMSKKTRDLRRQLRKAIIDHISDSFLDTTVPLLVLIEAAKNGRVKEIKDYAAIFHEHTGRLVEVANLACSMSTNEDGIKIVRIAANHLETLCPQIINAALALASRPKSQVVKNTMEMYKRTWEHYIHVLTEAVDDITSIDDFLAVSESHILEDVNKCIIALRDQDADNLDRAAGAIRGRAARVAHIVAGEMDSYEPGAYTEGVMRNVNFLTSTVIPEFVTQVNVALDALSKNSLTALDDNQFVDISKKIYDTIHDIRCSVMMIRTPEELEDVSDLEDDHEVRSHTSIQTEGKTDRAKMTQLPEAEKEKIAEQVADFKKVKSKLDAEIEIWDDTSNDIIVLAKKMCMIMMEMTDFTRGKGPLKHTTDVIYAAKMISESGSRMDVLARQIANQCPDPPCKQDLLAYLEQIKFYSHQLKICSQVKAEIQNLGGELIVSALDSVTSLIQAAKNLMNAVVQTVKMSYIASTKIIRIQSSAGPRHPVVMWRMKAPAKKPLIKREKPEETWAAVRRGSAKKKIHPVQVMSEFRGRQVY
Chain of UniProt P50524 (whole entry, unmodified, looked up): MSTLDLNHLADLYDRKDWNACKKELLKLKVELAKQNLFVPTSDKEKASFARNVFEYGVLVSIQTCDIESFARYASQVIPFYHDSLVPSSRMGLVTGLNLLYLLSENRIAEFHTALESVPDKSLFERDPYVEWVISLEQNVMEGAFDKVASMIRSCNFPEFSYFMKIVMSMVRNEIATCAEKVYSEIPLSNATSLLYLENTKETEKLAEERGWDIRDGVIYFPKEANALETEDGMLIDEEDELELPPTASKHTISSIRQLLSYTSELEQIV
Chain of UniProt O13154 (whole entry, looked up): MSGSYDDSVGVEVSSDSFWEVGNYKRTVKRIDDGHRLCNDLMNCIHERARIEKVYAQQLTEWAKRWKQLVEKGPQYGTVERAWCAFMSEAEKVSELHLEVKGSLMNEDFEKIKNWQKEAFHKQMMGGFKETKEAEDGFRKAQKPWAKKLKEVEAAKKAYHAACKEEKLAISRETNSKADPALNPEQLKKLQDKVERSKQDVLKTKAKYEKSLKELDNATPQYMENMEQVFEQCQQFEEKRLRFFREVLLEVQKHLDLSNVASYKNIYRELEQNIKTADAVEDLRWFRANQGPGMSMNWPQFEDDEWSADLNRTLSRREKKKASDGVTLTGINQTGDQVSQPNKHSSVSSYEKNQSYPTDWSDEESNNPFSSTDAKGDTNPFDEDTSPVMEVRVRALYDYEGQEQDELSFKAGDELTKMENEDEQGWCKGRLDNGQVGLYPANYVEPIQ
Chain of UniProt O14965 (whole entry, looked up): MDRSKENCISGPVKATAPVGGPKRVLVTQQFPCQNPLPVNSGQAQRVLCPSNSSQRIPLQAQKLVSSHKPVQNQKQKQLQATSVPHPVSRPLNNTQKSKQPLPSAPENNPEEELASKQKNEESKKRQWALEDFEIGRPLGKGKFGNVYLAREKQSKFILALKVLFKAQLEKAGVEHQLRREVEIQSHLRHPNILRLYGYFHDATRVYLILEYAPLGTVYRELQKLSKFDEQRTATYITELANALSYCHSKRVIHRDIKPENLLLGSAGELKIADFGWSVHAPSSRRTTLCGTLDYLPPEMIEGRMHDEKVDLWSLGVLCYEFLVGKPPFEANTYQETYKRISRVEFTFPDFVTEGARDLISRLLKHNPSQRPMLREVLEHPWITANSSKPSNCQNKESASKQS
Chain of UniProt P62258 (whole entry, looked up): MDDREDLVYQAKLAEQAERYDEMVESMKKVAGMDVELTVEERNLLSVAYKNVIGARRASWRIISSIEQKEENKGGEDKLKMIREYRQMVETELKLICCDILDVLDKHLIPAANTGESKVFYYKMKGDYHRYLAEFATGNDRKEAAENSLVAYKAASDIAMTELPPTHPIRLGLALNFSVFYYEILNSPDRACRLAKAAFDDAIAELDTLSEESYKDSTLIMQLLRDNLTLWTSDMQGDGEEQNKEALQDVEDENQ
Chain of UniProt P01127 (whole entry, looked up): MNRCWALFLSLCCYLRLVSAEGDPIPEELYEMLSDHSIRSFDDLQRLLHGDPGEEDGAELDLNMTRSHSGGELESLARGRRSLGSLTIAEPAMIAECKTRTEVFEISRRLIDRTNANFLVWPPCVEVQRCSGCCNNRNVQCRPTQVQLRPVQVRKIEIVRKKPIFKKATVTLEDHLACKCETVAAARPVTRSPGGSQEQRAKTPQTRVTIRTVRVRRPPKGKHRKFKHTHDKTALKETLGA
Chain of UniProt A0A1D5PXA5 (whole entry, looked up): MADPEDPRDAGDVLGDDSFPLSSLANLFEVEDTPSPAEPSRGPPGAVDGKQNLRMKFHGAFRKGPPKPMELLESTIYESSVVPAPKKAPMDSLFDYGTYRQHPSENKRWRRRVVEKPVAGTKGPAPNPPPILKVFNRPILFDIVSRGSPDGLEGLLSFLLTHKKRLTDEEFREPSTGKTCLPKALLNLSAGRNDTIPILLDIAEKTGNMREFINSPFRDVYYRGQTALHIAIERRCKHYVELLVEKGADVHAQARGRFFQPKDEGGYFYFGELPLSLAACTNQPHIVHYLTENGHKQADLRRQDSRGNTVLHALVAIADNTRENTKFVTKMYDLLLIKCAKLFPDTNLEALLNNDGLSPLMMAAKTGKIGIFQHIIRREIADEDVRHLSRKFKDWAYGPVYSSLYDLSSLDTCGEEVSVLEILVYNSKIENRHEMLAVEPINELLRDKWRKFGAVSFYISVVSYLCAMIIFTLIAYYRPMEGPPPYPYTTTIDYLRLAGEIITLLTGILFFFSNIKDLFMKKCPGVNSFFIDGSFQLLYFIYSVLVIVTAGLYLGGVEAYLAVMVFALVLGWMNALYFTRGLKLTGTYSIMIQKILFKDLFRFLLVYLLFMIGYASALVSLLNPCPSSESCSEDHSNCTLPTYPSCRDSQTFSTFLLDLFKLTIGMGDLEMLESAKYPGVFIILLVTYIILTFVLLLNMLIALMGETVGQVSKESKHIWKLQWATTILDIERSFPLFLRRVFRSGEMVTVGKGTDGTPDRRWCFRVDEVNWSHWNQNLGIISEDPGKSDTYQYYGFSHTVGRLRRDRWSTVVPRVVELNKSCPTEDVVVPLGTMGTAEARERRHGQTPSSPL
Chain of UniProt O60656 (whole entry, looked up): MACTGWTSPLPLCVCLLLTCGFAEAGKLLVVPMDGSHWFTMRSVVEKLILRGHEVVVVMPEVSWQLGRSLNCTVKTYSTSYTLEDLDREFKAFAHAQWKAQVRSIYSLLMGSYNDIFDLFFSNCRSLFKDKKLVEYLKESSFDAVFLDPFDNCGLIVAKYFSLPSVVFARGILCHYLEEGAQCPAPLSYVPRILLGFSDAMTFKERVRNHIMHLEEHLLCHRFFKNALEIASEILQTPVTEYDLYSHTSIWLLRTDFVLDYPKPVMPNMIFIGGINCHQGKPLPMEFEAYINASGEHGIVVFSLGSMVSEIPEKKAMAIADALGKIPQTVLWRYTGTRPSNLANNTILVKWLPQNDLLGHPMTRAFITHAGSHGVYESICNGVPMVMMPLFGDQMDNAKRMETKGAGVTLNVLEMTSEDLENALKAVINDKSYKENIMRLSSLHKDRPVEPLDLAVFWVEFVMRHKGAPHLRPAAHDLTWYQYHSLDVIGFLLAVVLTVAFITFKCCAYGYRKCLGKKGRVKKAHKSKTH
Chain of UniProt P26447 (whole entry, looked up): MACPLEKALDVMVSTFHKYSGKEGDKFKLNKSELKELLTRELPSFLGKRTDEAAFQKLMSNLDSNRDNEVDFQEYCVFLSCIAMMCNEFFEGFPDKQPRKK
Chain of UniProt P52917 (whole entry, unmodified, looked up): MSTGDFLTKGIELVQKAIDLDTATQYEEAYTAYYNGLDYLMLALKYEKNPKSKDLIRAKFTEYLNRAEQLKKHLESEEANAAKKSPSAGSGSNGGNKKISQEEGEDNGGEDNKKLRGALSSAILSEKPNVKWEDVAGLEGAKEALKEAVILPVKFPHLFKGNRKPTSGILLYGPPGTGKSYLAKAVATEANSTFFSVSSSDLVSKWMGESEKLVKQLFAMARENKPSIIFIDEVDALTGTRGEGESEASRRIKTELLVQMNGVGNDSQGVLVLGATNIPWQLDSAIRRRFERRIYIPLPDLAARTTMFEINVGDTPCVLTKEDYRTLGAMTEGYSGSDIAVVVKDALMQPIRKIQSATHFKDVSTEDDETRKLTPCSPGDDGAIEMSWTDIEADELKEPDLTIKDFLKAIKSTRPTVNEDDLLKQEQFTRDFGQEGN
Chain of UniProt P06734 (whole entry, looked up): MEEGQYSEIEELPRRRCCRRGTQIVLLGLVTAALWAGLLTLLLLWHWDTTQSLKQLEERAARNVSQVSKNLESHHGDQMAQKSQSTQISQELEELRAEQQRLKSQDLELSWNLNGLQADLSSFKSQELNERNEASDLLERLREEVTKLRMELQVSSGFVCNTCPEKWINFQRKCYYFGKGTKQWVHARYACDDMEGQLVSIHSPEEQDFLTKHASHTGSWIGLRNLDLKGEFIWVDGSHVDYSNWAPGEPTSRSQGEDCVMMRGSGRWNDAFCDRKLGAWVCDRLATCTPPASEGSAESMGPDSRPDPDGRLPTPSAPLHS

`B1 (VCL head domain 1)` gave a Kd of 0.003 µM (CTNNA3 M1-M3 259-667 (UniProt Q65CL1); magnetic tweezers force-jump).
`TKGPAPNPPPILKV (TRPV4 121-134 (Gallus gallus, UniProt A0A1D5PXA5); sequence looked up)` has a Kd of 12.7 ± 2.4 µM (PACSIN2 388-448 (Gallus gallus, UniProt O13154); NMR titration; peptide; pH 7, NaCl 100 mM).
With `TKDELTKIMDRASKIEQIQKLAKYAISALNYEDLPRAKDELTKALDLLNSI (VTA1 280-330 T315R (Saccharomyces cerevisiae, UniProt Q06263); sequence looked up)` the Kd was 440 ± 61 µM (VPS4 299-415 (Saccharomyces cerevisiae, UniProt P52917); SPR; pH 7.0, NaCl 150 mM, equilibrium fit).
`Palmitoyl-VVVAAAEEE-NH2 (peptide; palmitoyl tail; Palmitoyl = CCCCCCCCCCCCCCCC(=O)*)` gave a Kd of 0.461 µM (PDGFB homodimer (UniProt P01127); BLI; peptide).
For `NSKQNLNVSLSDEMNEDFRSGSEAFDLIAQDEEEFNKEHQFIQEENIDAHN (CEP192 491-541 (Homo sapiens, UniProt Q8TEP8))`, the Kd was 1.9 µM (AURKA kinase domain 123-403, phosphorylated (Homo sapiens, UniProt O14965); ITC).
With `BACH1 BTB domain (Homo sapiens) (sequence not shown)` the Kd was greater than 2.4 µM (FBXL17/SKP1 FBXL17 310-701 (Homo sapiens); BLI; 30 °C, apparent).
`CFH fragment (Homo sapiens)` gave a Kd of 10 µM (C3 C3b (Homo sapiens); SPR; 20 µM, 25 °C).
The Kd of `CKNYKKTEV (CRIPT C-terminal PBM; cyclic Lys-Glu lactam)` is reported as 0.384 µM (DLG4; SPR; peptide; pH 7.5, NaCl 100 mM).
For `IGHE Cε2-4 Fc (Homo sapiens)`, the Kd was 9.1 µM (FCER2 156-298 (Homo sapiens, UniProt P06734); SPR).
`RRRRRRRC / CGSFPPWVQKTEV (peptide)` has a Kd of 0.0274 µM (DLG4; SPR; peptide).
`{5‑TAMRA-Ahx}-NLSELDRLLDELN (PXN residues 141-153 L10D; N-terminal TAMRA, aminohexanoyl linker; 5‑TAMRA = CN(C)c1ccc2c(-c3ccc(C(=O)*)cc3C(=O)[O-])c3ccc(N(C)C)cc3[o+]c2c1; Ahx = NCCCCCC(=O)O)` has a Kd of 4500 µM (PTK2 892-1052 L1035D (Homo sapiens, UniProt Q05397); fluorescence polarisation; peptide).
`UGT1A9 (Homo sapiens, UniProt O60656)` gave a Vmax of 0.0054 µmol/min/mg (COc1ccc2oc(-c3ccccc3)c(O)c(=O)c2c1; steady-state kinetics; pH 7.4, 37 °C).
The Kd of `B2 (TIMP3)` is reported as 0.033 ± 0.012 µM (LRP1 (Homo sapiens, UniProt Q07954); SPR; 25 °C).
The Kd of `B3 (rpn10)` is reported as 182 ± 35 µM (rpn12 1-250 N106A/H112A/E116A, Oregon Green label (Schizosaccharomyces pombe, UniProt P50524); fluorescence polarization; 0-370 µM, 20 min, pH 7.4, 25 °C, NaCl 150 mM).
`SYK N-terminal SH2 domain` gave a Kd of 10.5 µM (CLEC1B fragment, pY7 (Homo sapiens); SPR; equilibrium Kd).
For `B4 (Reln 1948-2662)`, the Kd was 0.033 µM (LRP8 ectodomain, lacking LA4-6 (Homo sapiens); SPR; low calcium, steady-state affinity, added: Ca2+ 3 µM).
The Kd of `B5 (Fermt2 PH 386-496)` is reported as 1.08 ± 0.32 µM (Pxn, Atto520 label (Mus musculus, UniProt Q8VI36-2); ITC).
The Kd of `S100A4, QSY 35 on amines (Homo sapiens, UniProt P26447)` is reported as 0.0429 µM (SRXN1 C99S, Alexa 546 label (Homo sapiens); FRET; apparent, with EGTA).
With `ARLYHSLLPAA (designed peptide)` the Kd was 0.54 ± 0.01 µM (YWHAE (Homo sapiens, UniProt P62258); FP; peptide).

A few entries again:
With `TKDELTKIMDRASKIEQIQKLAKYAISALNYEDLPRAKDELTKALDLLNSI (VTA1 280-330 T315R (Saccharomyces cerevisiae, UniProt Q06263); sequence looked up)` the Kd was 440 ± 61 µM (VPS4 299-415 (Saccharomyces cerevisiae, UniProt P52917); SPR; pH 7.0, NaCl 150 mM, equilibrium fit).
